Experimental data collected from several papers.
Parts stem from different laboratories: compare values within a part only.

Series 1
Target: RING finger protein unkempt homolog, zinc fingers 1-6, GST-SBP tag (UNK, Homo sapiens, UniProt Q9C0B0, residues 30-357)
Method: RNA Bind-n-Seq
Molecule type: RNA
Medium: in vitro
Concentration: not given
Notes: RNA with constant flanks, human-mouse chimeric sites, ends assumed
Baseline: input RNA pool
Reading: higher = stronger binding
All sequences stand within: GGGAGUUCUACAGUCCGACGAUC … CAACAGAGGAUUGAGCAUCA
Construct (chain): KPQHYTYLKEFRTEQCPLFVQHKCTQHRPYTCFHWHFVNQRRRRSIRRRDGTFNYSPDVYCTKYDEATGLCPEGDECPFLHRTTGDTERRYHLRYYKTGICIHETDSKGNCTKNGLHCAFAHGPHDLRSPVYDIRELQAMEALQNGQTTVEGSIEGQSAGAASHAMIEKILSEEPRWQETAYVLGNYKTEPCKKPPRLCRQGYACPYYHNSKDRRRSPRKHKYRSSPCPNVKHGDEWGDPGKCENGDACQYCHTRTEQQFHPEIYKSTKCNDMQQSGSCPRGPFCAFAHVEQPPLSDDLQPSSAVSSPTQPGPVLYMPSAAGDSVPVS
Strand | bound/input enrichment
CUGGGUAUUAUUUCUCGUGCUGUUAGACACCUGUUCAAGAGUAUUGAUGAGAAAAAGACCUCAGCGAUUAAAAACGGGCUGCCCCCUCCUGAAUUCAAAGUGAAUGCCCAGUUCCUAGAG | 0.0704 ratio
AACAUUUUGUCAAAUUGUUAUGUUCCUGUGAAACAAGUGAACACUCUGAUACACUUCAUCUGCUUGUACAUCUGUAUUUGUAUAAUAUGUAAAUAUGUUAAUCCAAGCAAUGUGUCACUU | 0.148 ratio
UAAGUCCUGUGCCAGCACUUCGCUCAUAAAGUUUUAAAUUCUGGACCAAUAGUGUUUAUCUUUAGAAUAUUGUAUCCAAUACUUUGCCUAGUAUGUAACUCACUCUUACUGAUAAUAAAA | 10.1 ratio
GAAACAUUUAAAUUUAAAGAAGCUGUUGUUCUAGGAAGUACGGACUUUCUAGAAGAUGAUAUAGAGAAAAUUGUAGAAGAACUGGGGAAAGAGUAUAAAGGCAAUGCUUAUCAUUUAAUG | 1.94 ratio
AAAGUGGACUAUGGCGAAUACAUGGAUAAAAACAAUGUGAGGCGACAAGCAACAACAAUCAUAGCUGAUAACAUUAUAUUUCUGAGUGACCAGACAAAAGAAAAGGCAUAGAACGGAUGA | 1.9 ratio

Series 2
Target: Histone acetyltransferase KAT6A, winged helix 2, GST fusion (KAT6A, Homo sapiens, UniProt Q92794, residues 85-181)
Method: protein binding microarray
Molecule type: double-stranded DNA, one strand shown
Medium: in vitro
Concentration: not given
Notes: 8-mer, flanks averaged, mean of 2 arrays, mostly near background
Baseline: not given
Reading: higher = stronger binding
Construct (chain): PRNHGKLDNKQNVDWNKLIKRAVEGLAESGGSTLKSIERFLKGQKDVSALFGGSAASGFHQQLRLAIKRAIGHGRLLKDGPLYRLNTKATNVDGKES
Strand | E-score
CTAGCTGC | -0.0628
ACATCAGA | -0.085
CCGACAGG | 0.163
AGGTGTTA | -0.0853
ACGGACGC | -0.00918
ATTAAACA | 0.0781
ATAAAGGA | -0.0716
AAGTCATG | -0.179
CATACTCG | -0.0571
CTGGCGAC | 0.133
ACTACGTA | -0.0786

Series 3
Target: Sal-like protein 4, full length isoform A (SALL4, Homo sapiens, UniProt Q9UJQ4, residues 1-1053)
Chain of UniProt Q9UJQ4 (whole entry, looked up): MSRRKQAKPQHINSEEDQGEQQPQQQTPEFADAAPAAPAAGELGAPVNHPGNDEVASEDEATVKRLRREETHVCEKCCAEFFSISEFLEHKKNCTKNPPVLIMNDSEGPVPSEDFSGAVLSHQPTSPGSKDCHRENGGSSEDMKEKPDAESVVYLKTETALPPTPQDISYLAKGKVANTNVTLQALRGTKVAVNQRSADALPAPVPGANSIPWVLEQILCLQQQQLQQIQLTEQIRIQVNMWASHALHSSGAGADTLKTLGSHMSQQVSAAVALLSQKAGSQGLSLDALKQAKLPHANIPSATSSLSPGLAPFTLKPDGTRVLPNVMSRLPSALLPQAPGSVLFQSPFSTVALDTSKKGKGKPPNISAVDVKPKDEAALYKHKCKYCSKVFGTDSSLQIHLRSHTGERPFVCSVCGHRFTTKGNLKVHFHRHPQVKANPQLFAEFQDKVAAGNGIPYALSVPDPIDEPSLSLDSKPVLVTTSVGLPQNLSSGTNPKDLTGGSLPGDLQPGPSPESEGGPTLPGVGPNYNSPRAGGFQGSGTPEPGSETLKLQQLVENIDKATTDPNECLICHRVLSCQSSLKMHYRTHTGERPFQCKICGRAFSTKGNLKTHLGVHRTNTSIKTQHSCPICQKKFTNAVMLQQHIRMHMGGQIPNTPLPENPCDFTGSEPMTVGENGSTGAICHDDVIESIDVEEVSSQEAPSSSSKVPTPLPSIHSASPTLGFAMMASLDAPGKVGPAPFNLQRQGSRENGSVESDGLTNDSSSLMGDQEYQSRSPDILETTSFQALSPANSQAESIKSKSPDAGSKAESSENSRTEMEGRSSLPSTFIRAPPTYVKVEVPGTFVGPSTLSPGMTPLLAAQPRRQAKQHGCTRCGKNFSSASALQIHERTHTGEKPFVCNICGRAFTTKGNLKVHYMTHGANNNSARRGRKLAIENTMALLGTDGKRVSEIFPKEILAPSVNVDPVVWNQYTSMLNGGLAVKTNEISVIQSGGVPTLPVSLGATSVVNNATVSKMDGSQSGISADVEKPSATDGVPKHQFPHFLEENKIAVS
Method: universal PBM
Molecule type: double-stranded DNA, one strand shown
Medium: in vitro
Concentration: 600 nM
Notes: 8-mer, flanks averaged, mean of replicates
Reading: higher = stronger binding
Strand | E-score
AGTAAATC | 0.144
ATATGGCG | 0.104
GACTGCTC | -0.353
ACCGACGG | -0.297
CGTGGCAG | -0.195
GGTAAGGA | -0.0675
AGTTATGC | 0.298
GCGCGTAA | -0.0711
AGACTGGC | -0.235
AGAGACAC | -0.0689
AGTATACC | 0.207
AAGGGCCA | -0.172
GAACAGTA | 0.132
ACGGTAGA | -0.0745
ACTACGCT | 0.0238

Mixed results
Substance | target | assay | test system | setting | scale | endpoint | value
PhoQ, residues 284 288 289 292 302 303 SSTMSV | PhoP, residues 12 14 15 18 19 NHTVL (Escherichia coli, UniProt P23836) | Sort-seq, measured: YFP reporter | E. coli | PhoQ-PhoP variant library, with: 10 µM Mg2+ | baseline: high Mg2+ state, higher = stronger signaling | fold induction | 1.05

Repeated from above (series 1):
Strand | bound/input enrichment
CUGGGUAUUAUUUCUCGUGCUGUUAGACACCUGUUCAAGAGUAUUGAUGAGAAAAAGACCUCAGCGAUUAAAAACGGGCUGCCCCCUCCUGAAUUCAAAGUGAAUGCCCAGUUCCUAGAG | 0.0704 ratio
AACAUUUUGUCAAAUUGUUAUGUUCCUGUGAAACAAGUGAACACUCUGAUACACUUCAUCUGCUUGUACAUCUGUAUUUGUAUAAUAUGUAAAUAUGUUAAUCCAAGCAAUGUGUCACUU | 0.148 ratio
UAAGUCCUGUGCCAGCACUUCGCUCAUAAAGUUUUAAAUUCUGGACCAAUAGUGUUUAUCUUUAGAAUAUUGUAUCCAAUACUUUGCCUAGUAUGUAACUCACUCUUACUGAUAAUAAAA | 10.1 ratio
GAAACAUUUAAAUUUAAAGAAGCUGUUGUUCUAGGAAGUACGGACUUUCUAGAAGAUGAUAUAGAGAAAAUUGUAGAAGAACUGGGGAAAGAGUAUAAAGGCAAUGCUUAUCAUUUAAUG | 1.94 ratio
